Assay results pooled from the literature.
Every numbered part comes from another study and shows a few of its results, in no order.

Series 1 — cell line: HEK-293T/ACE2; tested at: concentration not given; time: 16 (unit not given); baseline: vehicle
| SMILES | viability [%] |
| --- | --- |
| CCCCC(CC)COC(=O)C(C#N)=C(c1ccccc1)c1ccccc1 (stereo not drawn) | 96.1 |
| COc1cc([C@@H]2c3cc4c(cc3[C@@H](O[C@@H]3O[C@@H]5CO[C@@H](C)O[C@H]5[C@H](O)[C@H]3O)[C@H]3COC(=O)[C@H]23)OCO4)cc(OC)c1O | 81.2 |
| CCc1cc2c(cc1N1CCC(N3CCOCC3)CC1)C(C)(C)c1[nH]c3cc(C#N)ccc3c1C2=O | 97.4 |
| CCN(CC)CCNC(=O)c1c(C)[nH]c(/C=C2\C(=O)Nc3ccc(F)cc32)c1C | 102 |
| CN(C)CC(c1ccc(O)cc1)C1(O)CCCCC1 (stereo not drawn) | 106 |

Series 2 — technique: RNA Bind-n-Seq; form: RNA; matrix: in vitro; tested at: 365 nM; baseline: no-protein control; direction: higher = stronger binding
Target: RNA binding protein fox-1 homolog 2, RRM domain, GST-SBP tag (RBFOX2, Homo sapiens, UniProt O43251-10, residues 100-194)
Notes: natural RNA segment, single round, ends assumed
Residues (chain): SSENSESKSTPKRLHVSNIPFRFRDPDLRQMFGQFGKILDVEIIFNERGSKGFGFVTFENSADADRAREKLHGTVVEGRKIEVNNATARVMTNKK
| Strand | RBNS enrichment (R) |
| --- | --- |
| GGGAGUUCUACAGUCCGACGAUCACAAAGGUCUUCUUCCCUCGCCCCUUCUCCAUCGUCCCAGGAAUCCCAGGGGGCAGCACAGCCGGCCCCCGGCCCACGUUUUCGGUGGAAAAUUAGAGUGAACAAGAACAUGGAAUUCUCGGGUGCCAA | 0.294 |
| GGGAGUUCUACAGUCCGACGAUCUGCAGAGCUUAGAGGACUGACUGCAUCUUGUUAGGGAAGCAUCUUUGAGAUGCAGAAUUCAUCUUUUUUGGAAUAUUUCCAUGGUGGAGCUCAGUCAUCACACUUCAAGAUGGAAUUCUCGGGUGCCAA | 0.584 |
| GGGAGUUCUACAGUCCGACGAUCACACAUAUGCAAUGUUUUAAGGUCUGUCUUAAGAAGCUUUGGCCAAAUUGGGAUCCUAACCUAAGAUGCCUUAAACUUAUUAACAUGACCAUUAUAAGAAAAGAUAUAUGUGGAAUUCUCGGGUGCCAA | 0.325 |
| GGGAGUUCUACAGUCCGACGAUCUCUCCAUGAAACUCUGUGGUUUCAUCAUUCCUUCUUAGUUGACCUGCACAGCUUGGUUAGACCUAGAUUUAACCCUAAGGUAAGAUGCUGGGGUAUAGAACGCUAAGAAUUGGAAUUCUCGGGUGCCAA | 0.245 |
| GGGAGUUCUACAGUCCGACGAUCCCUGAAGAGUGAUAUUUGUACAAUAGCUUUCUUCUUUAUUUAAAUAAACAUUUGUAUUGUAGUUGGGUUCUGAAGUCCAUUCUGGCUCUGCUACUUAACAGUGUAUAAUCUGGAAUUCUCGGGUGCCAA | 0.277 |
| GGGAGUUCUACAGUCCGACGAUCAAUUCCCCAGGCUGUGAUCUACCCUAGAGAAGGCUCGCUCCCUGCCUACUGGCUCACAAAUGAGGACCAGUGAGCCAUGUCCUUGUUCCUUGUUUGAGACUGGGCUGCAGUGGAAUUCUCGGGUGCCAA | 1.38 |
| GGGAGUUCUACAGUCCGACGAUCUUGCAAGGCUGUACAAUGUGCUGAUGCAAGCCUUUUUCAGUUCAAGAGAAUAAAUGUUUACAAAUGUAGACCCACUUUGUCUUUUUUCUAAUUAGAAACAUCCUUAGGGAUGGAAUUCUCGGGUGCCAA | 0.814 |
| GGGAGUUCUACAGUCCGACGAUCACUGGGUAGCAGUCUGGCCCUCCUGUCGUCUGGUUGGUGUUGGGGCCUCCAGCCAGGGCCCUCUAGGGGAACCAAGCCUCUGCUCUCACCUGUGGGUUCUUGCCCAUCAGUGGAAUUCUCGGGUGCCAA | 0.269 |

Series 3 — technique: universal PBM; form: double-stranded DNA, one strand shown; matrix: in vitro; tested at: 600 nM; direction: higher = stronger binding
Target: Sal-like protein 4, full length isoform A (SALL4, Homo sapiens, UniProt Q9UJQ4, residues 1-1053)
Sequence of UniProt Q9UJQ4 (whole entry, looked up): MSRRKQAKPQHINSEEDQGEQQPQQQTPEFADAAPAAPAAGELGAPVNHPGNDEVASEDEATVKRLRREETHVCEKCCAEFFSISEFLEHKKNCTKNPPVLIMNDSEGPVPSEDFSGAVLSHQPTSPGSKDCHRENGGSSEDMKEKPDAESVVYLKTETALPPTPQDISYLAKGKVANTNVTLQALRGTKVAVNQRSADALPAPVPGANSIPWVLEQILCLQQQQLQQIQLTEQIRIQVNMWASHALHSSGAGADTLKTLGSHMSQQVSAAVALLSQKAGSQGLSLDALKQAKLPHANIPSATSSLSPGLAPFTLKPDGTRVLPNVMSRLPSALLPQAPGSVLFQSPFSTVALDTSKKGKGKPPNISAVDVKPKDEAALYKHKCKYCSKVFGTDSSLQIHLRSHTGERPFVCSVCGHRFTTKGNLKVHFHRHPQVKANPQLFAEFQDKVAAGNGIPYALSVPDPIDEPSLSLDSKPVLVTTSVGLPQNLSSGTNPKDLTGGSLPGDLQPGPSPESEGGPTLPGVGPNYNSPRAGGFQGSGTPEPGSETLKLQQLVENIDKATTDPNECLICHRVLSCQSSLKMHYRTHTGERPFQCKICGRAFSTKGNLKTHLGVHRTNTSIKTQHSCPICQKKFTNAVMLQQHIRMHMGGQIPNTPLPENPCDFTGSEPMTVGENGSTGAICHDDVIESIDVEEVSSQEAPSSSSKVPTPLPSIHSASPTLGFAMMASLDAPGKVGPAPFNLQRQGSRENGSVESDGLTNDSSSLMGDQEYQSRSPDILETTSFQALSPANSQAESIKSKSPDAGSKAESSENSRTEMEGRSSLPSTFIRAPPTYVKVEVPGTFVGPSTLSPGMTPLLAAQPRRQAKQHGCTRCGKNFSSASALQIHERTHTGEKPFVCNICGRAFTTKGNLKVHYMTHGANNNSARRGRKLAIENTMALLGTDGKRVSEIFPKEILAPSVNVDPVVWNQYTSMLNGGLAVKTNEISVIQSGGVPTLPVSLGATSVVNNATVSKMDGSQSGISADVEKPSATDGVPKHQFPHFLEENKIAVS
Notes: 8-mer, flanks averaged, mean of replicates
| Strand | E-score |
| --- | --- |
| CCGAGCTA | -0.192 |
| GTAACCTA | 0.189 |
| GCATGGAC | -0.154 |
| CGCACCCC | -0.289 |
| CCAACACG | -0.118 |
| ACCGCGAG | -0.29 |
| CTAGTAAG | 0.115 |
| CATCAAAA | 0.213 |

Series 4 — technique: competition protein-binding microarray; form: double-stranded DNA, one strand shown; matrix: in vitro; tested at: 2 µM; added: Pho4 competitor, 0.05 µM; direction: higher = stronger binding
Target: Centromere-binding protein 1, full length, His-tagged (CBF1, Saccharomyces cerevisiae, UniProt P17106, residues 1-351)
Sequence of UniProt P17106 (whole entry, looked up): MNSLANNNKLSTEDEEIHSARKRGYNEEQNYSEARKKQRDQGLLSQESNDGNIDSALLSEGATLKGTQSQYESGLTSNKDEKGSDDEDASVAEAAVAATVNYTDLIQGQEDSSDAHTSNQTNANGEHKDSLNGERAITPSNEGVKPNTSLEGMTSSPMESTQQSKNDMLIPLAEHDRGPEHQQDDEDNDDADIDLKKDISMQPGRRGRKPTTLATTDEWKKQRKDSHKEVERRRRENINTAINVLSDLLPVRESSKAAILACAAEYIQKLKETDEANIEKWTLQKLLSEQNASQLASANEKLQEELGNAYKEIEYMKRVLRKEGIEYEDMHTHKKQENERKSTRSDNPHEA
Notes: whole 60-bp probe, lowest competitor level
| Strand | fluorescence intensity |
| --- | --- |
| CTTCTGTAAATTTGTCTGGTGGGTGGACGCGCCCCGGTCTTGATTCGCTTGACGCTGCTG | 104 a.u. |
| ACCCTTTTCCCGAGTCACGTGCAAAGTGTAATAGTAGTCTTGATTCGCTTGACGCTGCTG | 6670 a.u. |
| AGTAATAGATCTCGGCACGTGGCCGCATTGACTCCGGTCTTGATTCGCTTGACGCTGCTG | 1540 a.u. |
| CTTCTGTAAATTTGCACAGTGGGTGGACGCGCCCCGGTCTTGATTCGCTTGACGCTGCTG | 68.1 a.u. |
| GTATTTTGTAAACAGCACGTGATGGACAGGGCGCAGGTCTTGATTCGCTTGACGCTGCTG | 4380 a.u. |
| CTTCTGTAAATTTTTCACGTGTCCTGACGCGCCCCGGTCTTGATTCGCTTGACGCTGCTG | 940 a.u. |
| CATACCCAACCTTGGTATGTGGGTGAAGATATTTGTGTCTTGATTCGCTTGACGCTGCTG | 70.8 a.u. |
| AGCCTTCCCGGCAGATTAATTCAATGGGAGTTGCCGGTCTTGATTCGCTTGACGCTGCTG | 56.7 a.u. |

Series 5 — organism: SARS-CoV-2; effect on: cytopathic effect; cell line: Vero E6; tested at: 10 µM
| SMILES | inhibition [%] |
| --- | --- |
| COC(=O)[C@H](CCSC)NC(=O)c1ccc(NC[C@@H](N)CS)cc1-c1ccccc1 | -7.1 |
| Sc1nnnn1-c1ccccc1 | -7.7 |
| NC(=S)N/N=C/c1coc2ccccc2c1=O | 2.3 |

Series 6 — effect on: enzyme activity; action: inhibitor; tested at: 20 µM
Target: Replicase polyprotein 1ab, polymerase (rep, Severe acute respiratory syndrome coronavirus 2, UniProt P0DTD1)
| SMILES | inhibition [%] |
| --- | --- |
| CC1=C(C(=O)OC2CCCCC2)C(c2ccc([N+](=O)[O-])cc2)C2=C(CC(C)(C)CC2=O)N1 (stereo not drawn) | 4.1 |
| FC(F)c1nc2ccccc2n1-c1nc(N2CCOCC2)nc(N2CCOCC2)n1 | 0.12 |
| Cc1cc(OCC(=O)O)cc(C)c1Cc1ccc(O)c(C(C)C)c1 | -2.37 |
| N#C/C(=C\c1cccn1S(=O)(=O)c1cccc([N+](=O)[O-])c1)S(=O)(=O)c1ccc(F)cc1 | 3.29 |
| C[S+]([O-])CCCCN=C=S (stereo not drawn) | 0.24 |
| Cc1ccc2nc(N)[nH]c(=O)c2c1Sc1ccncc1 | 5.21 |
| CCOC(=O)C1=C(COCCN)NC(C)=C(C(=O)OC)C1c1ccccc1Cl (stereo not drawn) | -4.98 |
| CC(Cc1cccc(C(F)(F)F)c1)NCCOC(=O)c1ccccc1 (stereo not drawn) | 1.59 |
| c1ccc2c(c1)Nc1ccccc1S2 | -5.42 |
| CCN(CC)C(=S)SSC(=S)N(CC)CC | 13.4 |
| CCOC(=O)C1=C(C)NC(C)=C(C(=O)OC)C1c1cccc(Cl)c1Cl (stereo not drawn) | 6.95 |
| CC(C(=O)O)c1ccc(-c2ccccc2)c(F)c1 (stereo not drawn) | 1.37 |
| CN1C(=O)C(Cc2c[nH]c3ccccc23)NC1=S (stereo not drawn) | 0.64 |
| CCC(CC)Nc1nc(C)c(-c2ccc(OC(F)(F)F)cc2OC)nc1OC | -11.2 |
| Cc1cccc(-c2nn3c(c2-c2ccnc4ccc(C(N)=O)cc24)CCC3)n1 | -1.9 |
| O=C(O)/C=C/c1ccc(-c2ccc(O)c(C34CC5CC(CC(C5)C3)C4)c2)cc1 | -0.86 |
| O=C(O)C1=CCCN(CCOC(c2ccc(C(F)(F)F)cc2)c2ccc(C(F)(F)F)cc2)C1 | -13.7 |
| CC1(C)[C@@H](OC(=O)CCC(=O)O)CC[C@]2(C)[C@H]3C(=O)C=C4[C@@H]5C[C@@](C)(C(=O)O)CC[C@]5(C)CC[C@@]4(C)[C@]3(C)CC[C@@H]12 | 15.8 |
| Cc1cc(-n2c(=O)[nH]c(=O)n(C)c2=O)ccc1Oc1ccc(SC(F)(F)F)cc1 | -4.75 |
| Nc1nc2c(ncn2COCCO)c(=O)[nH]1 | -6.32 |
| CC(C1=C(CCN(C)C)Cc2ccccc21)c1ccccn1 (stereo not drawn) | -4.01 |
| O=C(Nc1ccc(S(=O)(=O)Nc2ccccc2Cl)c(Cl)c1)c1ccccn1 | 0.21 |
| N[C@H](C(=O)O)[C@@H]1CC(Cl)=NO1 | 1.58 |
| Cc1ccc2c(c1)C1(CCN(CCc3nc(-c4ccccc4)oc3C)CC1)OC(=O)N2 | 1.18 |
| CC[C@@H]1/C=C(\C)C[C@H](C)C[C@H](OC)[C@H]2O[C@@](O)(C(=O)C(=O)N3CCCC[C@H]3C(=O)O[C@H](/C(C)=C/[C@@H]3CC[C@@H](O)[C@H](OC)C3)[C@H](C)[C@@H](O)CC1=O)[C@H](C)C[C@@H]2OC | -6.12 |

Excerpt of the above (series 2):
| Strand | RBNS enrichment (R) |
| --- | --- |
| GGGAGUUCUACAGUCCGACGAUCUCUCCAUGAAACUCUGUGGUUUCAUCAUUCCUUCUUAGUUGACCUGCACAGCUUGGUUAGACCUAGAUUUAACCCUAAGGUAAGAUGCUGGGGUAUAGAACGCUAAGAAUUGGAAUUCUCGGGUGCCAA | 0.245 |
| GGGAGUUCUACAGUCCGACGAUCCCUGAAGAGUGAUAUUUGUACAAUAGCUUUCUUCUUUAUUUAAAUAAACAUUUGUAUUGUAGUUGGGUUCUGAAGUCCAUUCUGGCUCUGCUACUUAACAGUGUAUAAUCUGGAAUUCUCGGGUGCCAA | 0.277 |
| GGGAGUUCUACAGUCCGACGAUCAAUUCCCCAGGCUGUGAUCUACCCUAGAGAAGGCUCGCUCCCUGCCUACUGGCUCACAAAUGAGGACCAGUGAGCCAUGUCCUUGUUCCUUGUUUGAGACUGGGCUGCAGUGGAAUUCUCGGGUGCCAA | 1.38 |
| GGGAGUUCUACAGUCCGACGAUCUUGCAAGGCUGUACAAUGUGCUGAUGCAAGCCUUUUUCAGUUCAAGAGAAUAAAUGUUUACAAAUGUAGACCCACUUUGUCUUUUUUCUAAUUAGAAACAUCCUUAGGGAUGGAAUUCUCGGGUGCCAA | 0.814 |
